# Results collected from several papers.
Compound,organism,assay,test system,conditions,MIC
CC[C@H](C)[C@H](NC(=O)[C@H](CCCNC(=N)N)NC(=O)[C@H](Cc1c[nH]c2ccccc12)NC(=O)[C@H](CCCNC(=N)N)NC(=O)[C@H](Cc1c[nH]c2ccccc12)NC(=O)[C@H](Cc1c[nH]c2ccccc12)NC(=O)[C@H](Cc1c[nH]c2ccccc12)NC(=O)[C@H](CCCNC(=N)N)NC(=O)[C@H](Cc1c[nH]c2ccccc12)NC(=O)[C@H](CCCNC(=N)N)NC(=O)CN)C(N)=O,Candida albicans,broth microdilution,"SP3931, RPMI 1640-MOPS","48 h, 30 °C",8 µM
CC1(C)SC2C(NC(=O)C(NC(=O)C3=C(O)C(Cc4ccsc4)NC3=O)c3ccccc3)C(=O)N2C1C(=O)O (stereo not drawn),Escherichia coli,,"ATCC 35218, low-level TEM-1",without clavulanic acid,> 200 µg/mL
N=C(N)NCCC[C@H](NC(=O)CN)C(=O)N[C@@H](Cc1c[nH]c2ccccc12)C(=O)N[C@@H](CCCNC(=N)N)C(=O)N[C@@H](Cc1c[nH]c2ccccc12)C(=O)N[C@@H](Cc1c[nH]c2ccccc12)C(=O)N[C@@H](Cc1c[nH]c2ccccc12)C(=O)N[C@@H](CCCNC(=N)N)C(=O)N[C@@H](Cc1c[nH]c2ccccc12)C(=O)N[C@@H](CCCNC(=N)N)C(=O)N[C@@H](Cc1c[nH]c2ccccc12)C(N)=O,Candida albicans,broth microdilution,"SP3876, RPMI 1640-MOPS","48 h, 30 °C",16 µM
CO/N=c1\cc2n(-c3ccc(Cl)cc3)c3ccccc3nc-2cc1Nc1ccc(Cl)cc1,Neisseria gonorrhoeae,bacterial growth,"700825, streptomycin-resistant",24 h,> 30 µM
CC[C@H](C)[C@H](NC(=O)[C@H](CC(N)=O)NC(=O)[C@H](Cc1ccccc1)NC(=O)[C@H](CCCNC(=N)N)NC(=O)[C@H](CCCNC(=N)N)NC(=O)[C@@H](N)CCCCN)C(=O)N[C@@H](CCCCN)C(=O)N[C@@H](CC(C)C)C(=O)N[C@@H](Cc1c[nH]c2ccccc12)C(=O)N[C@@H](CCCCN)C(=O)N[C@H](C(=O)N[C@@H](Cc1ccccc1)C(=O)O)[C@@H](C)O,Salmonella enterica subsp. enterica,,,,200 µg/mL
C[C@H](NC(=O)[C@H](CCCNC(=N)N)NC(=O)[C@H](Cc1c[nH]c2ccccc12)NC(=O)[C@H](CCCNC(=N)N)NC(=O)[C@H](Cc1c[nH]c2ccccc12)NC(=O)[C@H](Cc1c[nH]c2ccccc12)NC(=O)[C@H](Cc1c[nH]c2ccccc12)NC(=O)[C@H](CCCNC(=N)N)NC(=O)[C@H](Cc1c[nH]c2ccccc12)NC(=O)[C@@H](N)CCCNC(=N)N)C(N)=O,Candida albicans,broth microdilution,"alveolar fluid isolate, RPMI 1640-MOPS","48 h, 30 °C",8 µM
CC1(C)SC2C(NC(=O)C(NC(=O)C3=C(O)C(Cc4ccco4)NC3=O)c3ccccc3)C(=O)N2C1C(=O)O (stereo not drawn),Escherichia coli,broth microdilution,"isolate IU 356 A, KPC-3, VIM-1, TEM",no clavulanic acid,> 200 µg/mL
CC[C@H](C)[C@H](NC(=O)[C@H](CCCNC(=N)N)NC(=O)[C@H](Cc1c[nH]c2ccccc12)NC(=O)[C@H](CCCNC(=N)N)NC(=O)[C@H](Cc1c[nH]c2ccccc12)NC(=O)[C@H](Cc1c[nH]c2ccccc12)NC(=O)[C@H](Cc1c[nH]c2ccccc12)NC(=O)[C@H](CCCNC(=N)N)NC(=O)[C@H](Cc1c[nH]c2ccccc12)NC(=O)[C@@H](N)CCCNC(=N)N)C(N)=O,Candida albicans,,CGMCC 2.209,no added salts,16 µM
CC(C)/N=c1\cc2n(-c3ccc(Cl)cc3)c3ccccc3nc-2cc1Nc1ccc(Cl)cc1,Neisseria gonorrhoeae,bacterial growth,"1130991, multidrug-resistant",24 h,0.94 µM
CC(C)C[C@@H](NC(=O)[C@H](C)NC(=O)CNC(=O)[C@@H](NC=O)C(C)C)C(=O)N[C@@H](C)C(=O)N[C@@H](C(=O)N[C@H](C(=O)N[C@@H](C(=O)N[C@@H](Cc1c[nH]c2ccccc12)C(=O)N[C@H](CC(C)C)C(=O)N[C@@H](Cc1ccc2[nH]ccc2c1)C(=O)N[C@H](CC(C)C)C(=O)N[C@@H](Cc1c[nH]c2ccccc12)C(=O)N[C@H](CC(C)C)C(=O)N[C@@H](Cc1c[nH]c2ccccc12)C(=O)NCCO)C(C)C)C(C)C)C(C)C,Streptococcus agalactiae,broth microdilution,JCM 5671,,0.53 µM
CC(C)CC1NC(=O)C(C(=O)NC(C(=O)NC2C(=O)N3C2SC(C)(C)C3C(=O)O)c2ccccc2)=C1O (stereo not drawn),Escherichia coli,broth microdilution,"isolate IU 356 A, KPC-3, VIM-1, TEM",together with: clavulanic acid 6 µg/mL,> 200 µg/mL
N=C(N)c1ccc(OCc2cccc(COc3ccc(C(=N)N)cc3)c2)cc1,Escherichia coli,,mcr-1,"20 h, in combination, checkerboard, together with: rifampicin",25 µg/mL
O/N=c1\cc2n(-c3ccc(Cl)cc3)c3ccccc3nc-2cc1Nc1ccc(Cl)cc1,Neisseria gonorrhoeae,bacterial growth,"700825, streptomycin-resistant",24 h,3.75 µM
Cc1c2ccncc2c(C)c2c1[nH]c1ccccc12,Candidozyma auris,inhibitor,278,24 h,128 µg/mL
CC[C@H](C)[C@H](NC(=O)[C@H](CC(C)C)NC(=O)CNC(=O)[C@H](CCCCN)NC(=O)[C@H](CC(C)C)NC(=O)[C@@H](NC(=O)[C@H](CCCCN)NC(=O)[C@@H](NC(=O)[C@@H](NC(=O)[C@H](CCC(N)=O)NC(=O)[C@H](CC(N)=O)NC(=O)[C@@H](NC(=O)[C@@H](NC(=O)[C@H](CC(=O)O)NC(=O)[C@H](CO)NC(=O)[C@@H](N)CCSC)[C@@H](C)CC)[C@@H](C)CC)[C@@H](C)CC)C(C)C)C(C)C)C(=O)N[C@@H](CC(=O)O)C(=O)N[C@@H](CCCCN)C(=O)N[C@@H](CC(C)C)C(=O)N[C@H](C(=O)N[C@@H](CCCCN)C(=O)N[C@@H](CCCCN)C(=O)O)[C@@H](C)O,Micrococcus luteus,broth microdilution,DSM 1790,,20 µM
CC[C@H](C)[C@H](NC(=O)[C@H](C)NC(=O)[C@H](CCCCN)NC(=O)[C@H](CC(C)C)NC(=O)[C@H](C)NC(=O)[C@@H](NC(=O)[C@H](Cc1c[nH]cn1)NC(=O)[C@H](CC(C)C)NC(=O)[C@@H](NC(=O)[C@@H](NC(=O)[C@H](CCCCN)NC(=O)[C@H](C)NC(=O)[C@H](C)NC(=O)[C@H](CO)NC(=O)[C@H](CCCCN)NC(=O)[C@H](Cc1ccccc1)NC(=O)[C@@H](NC(=O)[C@H](CCCCN)NC(=O)[C@H](CC(C)C)NC(=O)[C@H](Cc1ccccc1)NC(=O)[C@H](CO)NC(=O)[C@H](CCCCN)NC(=O)[C@H](Cc1c[nH]c2ccccc12)NC(=O)[C@H](CCCCN)NC(C)=O)[C@@H](C)O)[C@@H](C)O)C(C)C)[C@@H](C)O)C(=O)N[C@@H](CO)C(=O)N[C@@H](CO)C(N)=O,Klebsiella pneumoniae,,ESBL ATCC 700603,,8 µg/mL
N=C(N)NCCC[C@H](NC(=O)CN)C(=O)N[C@@H](Cc1c[nH]c2ccccc12)C(=O)N[C@@H](CCCNC(=N)N)C(=O)N[C@@H](Cc1c[nH]c2ccccc12)C(=O)N[C@@H](Cc1c[nH]c2ccccc12)C(=O)N[C@@H](Cc1c[nH]c2ccccc12)C(=O)N[C@@H](CCCNC(=N)N)C(=O)N[C@@H](Cc1c[nH]c2ccccc12)C(=O)N[C@@H](CCCNC(=N)N)C(=O)N[C@@H](Cc1ccccc1)C(N)=O,Candida albicans,broth microdilution,"CGMCC 2.209, RPMI 1640-MOPS","48 h, 30 °C, together with: NH4Cl 6 µM",16 µM
CC1(C)SC2C(NC(=O)C(NC(=O)C3=C(O)C(Cc4ccc(O)cc4)NC3=O)c3ccccc3)C(=O)N2C1C(=O)O (stereo not drawn),Escherichia coli,broth microdilution,"isolate IU 356 A, KPC-3, VIM-1, TEM",no clavulanic acid,> 200 µg/mL

# A few entries again:
Compound,organism,assay,test system,conditions,MIC
CC[C@H](C)[C@H](NC(=O)[C@H](CCCNC(=N)N)NC(=O)[C@H](Cc1c[nH]c2ccccc12)NC(=O)[C@H](CCCNC(=N)N)NC(=O)[C@H](Cc1c[nH]c2ccccc12)NC(=O)[C@H](Cc1c[nH]c2ccccc12)NC(=O)[C@H](Cc1c[nH]c2ccccc12)NC(=O)[C@H](CCCNC(=N)N)NC(=O)[C@H](Cc1c[nH]c2ccccc12)NC(=O)[C@@H](N)CCCNC(=N)N)C(N)=O,Candida albicans,,CGMCC 2.209,no added salts,16 µM
CC(C)C[C@@H](NC(=O)[C@H](C)NC(=O)CNC(=O)[C@@H](NC=O)C(C)C)C(=O)N[C@@H](C)C(=O)N[C@@H](C(=O)N[C@H](C(=O)N[C@@H](C(=O)N[C@@H](Cc1c[nH]c2ccccc12)C(=O)N[C@H](CC(C)C)C(=O)N[C@@H](Cc1ccc2[nH]ccc2c1)C(=O)N[C@H](CC(C)C)C(=O)N[C@@H](Cc1c[nH]c2ccccc12)C(=O)N[C@H](CC(C)C)C(=O)N[C@@H](Cc1c[nH]c2ccccc12)C(=O)NCCO)C(C)C)C(C)C)C(C)C,Streptococcus agalactiae,broth microdilution,JCM 5671,,0.53 µM
